# Measurements gathered from unrelated publications.
# Every numbered part comes from another study and shows a few of its results, in no order.

# Set 1
# Target: Histone acetyltransferase KAT6A, both winged helices, GST fusion (KAT6A, Homo sapiens, UniProt Q92794, residues 1-181)
# Method: protein binding microarray
# Form: double-stranded DNA, one strand shown
# Sample: in vitro
# Tested at: not given
# Setting: 8-mer, flanks averaged, mean of 2 arrays, mostly near background
# Reference: not given
# Reading: higher = stronger binding
# Residues (chain): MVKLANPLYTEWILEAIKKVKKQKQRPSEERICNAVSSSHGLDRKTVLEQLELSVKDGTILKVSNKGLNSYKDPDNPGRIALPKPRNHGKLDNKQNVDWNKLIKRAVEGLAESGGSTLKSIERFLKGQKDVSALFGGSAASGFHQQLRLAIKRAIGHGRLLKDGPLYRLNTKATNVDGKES
Oligonucleotide,E-score
ATGTATAA,-0.0753
ACCTCCTG,-0.175
CATCCCAC,0.00331
CATTCAGG,-0.144
GATTCGAC,-0.169
ATTTAGCC,0.0546
CGTATTCA,0.176
CCCTTAGA,-0.306
CTTCTAAA,-0.185
CCCAGAGA,-0.17
AAATCGAC,0.0419
CTAGTGAA,-0.128
AATTCCGG,0.201
AAGTTGTC,-0.0219
CTTTTCAC,-0.0834
CCCCCGTA,0.0417
TAATGAAA,-0.148
ACACTTTC,-0.0528
GAAGTCAA,-0.0529

# Set 2
# Target: Sal-like protein 4, full length isoform A (SALL4, Homo sapiens, UniProt Q9UJQ4, residues 1-1053)
# Chain of UniProt Q9UJQ4 (whole entry, looked up): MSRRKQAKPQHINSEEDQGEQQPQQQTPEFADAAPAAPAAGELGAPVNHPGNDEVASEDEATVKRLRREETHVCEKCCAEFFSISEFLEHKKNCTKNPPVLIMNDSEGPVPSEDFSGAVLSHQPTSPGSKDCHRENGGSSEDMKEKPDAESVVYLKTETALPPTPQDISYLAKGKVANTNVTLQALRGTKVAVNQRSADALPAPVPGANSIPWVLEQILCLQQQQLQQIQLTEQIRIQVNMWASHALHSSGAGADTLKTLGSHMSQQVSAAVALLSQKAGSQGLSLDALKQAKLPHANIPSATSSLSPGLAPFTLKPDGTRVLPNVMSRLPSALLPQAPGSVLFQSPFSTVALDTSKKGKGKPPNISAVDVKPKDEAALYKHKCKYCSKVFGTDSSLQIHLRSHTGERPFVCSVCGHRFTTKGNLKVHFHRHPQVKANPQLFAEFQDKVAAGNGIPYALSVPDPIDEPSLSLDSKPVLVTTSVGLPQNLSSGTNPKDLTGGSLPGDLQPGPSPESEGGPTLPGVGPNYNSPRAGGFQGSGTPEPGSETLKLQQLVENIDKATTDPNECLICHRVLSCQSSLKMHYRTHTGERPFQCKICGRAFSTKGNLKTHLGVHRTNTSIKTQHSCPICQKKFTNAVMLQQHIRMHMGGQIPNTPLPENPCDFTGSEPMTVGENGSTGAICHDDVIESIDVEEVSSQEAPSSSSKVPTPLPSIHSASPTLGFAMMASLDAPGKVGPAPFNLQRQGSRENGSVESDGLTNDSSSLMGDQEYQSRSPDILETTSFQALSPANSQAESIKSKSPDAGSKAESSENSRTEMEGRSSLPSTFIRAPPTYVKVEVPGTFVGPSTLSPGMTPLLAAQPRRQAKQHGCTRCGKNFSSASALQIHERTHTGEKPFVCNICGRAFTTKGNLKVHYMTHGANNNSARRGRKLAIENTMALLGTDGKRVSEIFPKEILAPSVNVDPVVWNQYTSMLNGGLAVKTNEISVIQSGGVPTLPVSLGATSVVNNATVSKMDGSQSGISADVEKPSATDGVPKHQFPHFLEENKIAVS
# Method: universal PBM
# Form: double-stranded DNA, one strand shown
# Sample: in vitro
# Tested at: 600 nM
# Setting: 8-mer, flanks averaged, mean of replicates
# Reading: higher = stronger binding
Oligonucleotide,E-score
AAGGTCTA,0.00764
GTGGGTAA,-0.127
GCAGATAA,0.144
CCCATTAG,-0.272
AACTCGGC,-0.12
AATCAATG,0.262
CTGACTTA,0.192
GAATTATC,0.273
CTTCCGCA,-0.101
AGTGTTCA,0.104
CCTGGTGC,-0.229
ATTTGTGA,0.224
GTGGCTCA,-0.198
AACCCCGT,-0.185
CTGGGACA,-0.19

# Set 3
# Target: UBE2G1 UBC core domain (UniProt P62253)
# Method: yeast two-hybrid
# Sample: yeast
# Setting: mostly zero background
# Reference: not given
# Reading: higher = stronger interaction
# B1: TRIM41 RING domain (UniProt Q8WV44); chain PVQTLQEEAVCAICLDYFTDPVSIGCGHNFCRVCVTQLWGGEDEEDRDELDREEEEEDGEEE
# B2: RNF182 RING domain (UniProt Q8N6D2); chain AESQASDELECKICYNRYNLKQRKPKVLECCHRVCAKCLYKIIDFGDSPQGVIVCPFCRFETCLPDDEV
# B3: TRIM11 RING domain (UniProt Q96F44); chain LSTNLQEEATCAICLDYFTDPVMTDCGHNFCRECIRRCWGQPEGPYACPECRELSPQRNLRP
# B4: RNF186 RING domain (UniProt Q9NXI6); chain HSGSTECDLECLVCREPYSCPRLPKLLACQHAFCAICLKLLLCVQDNTWSITCPLCRKVTAVPGGLI
# B5: BFAR RING domain (UniProt Q9NZS9); chain GPQISVSEFSCHCCYDILVNPTTLNCGHSFCRHCLALWWASSKKTECPECREKWEGFPKVS
# Target sequence (chain): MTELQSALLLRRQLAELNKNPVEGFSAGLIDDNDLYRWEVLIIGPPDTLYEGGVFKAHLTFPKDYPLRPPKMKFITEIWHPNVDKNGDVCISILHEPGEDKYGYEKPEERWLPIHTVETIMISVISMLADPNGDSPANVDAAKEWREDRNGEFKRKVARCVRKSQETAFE
Sequence,lacZ reporter activity
B1 (TRIM41 RING domain),0
B2 (RNF182 RING domain),0
B3 (TRIM11 RING domain),0
B4 (RNF186 RING domain),0
DDVLTKDAGECVICLEELLQGDTIARLPCLCIYHKSCIDSWFEVNRSCPEHPAD (ZNRF1 RING domain (UniProt Q8ND25)),0
FAEQPSVKLCCQLCCSVFKDPVITTCGHTFCRRCALKSEKCPVDNVKLTVVVNNI (TRAF7 RING domain (UniProt Q6Q0C0)),0
B5 (BFAR RING domain),0

# Set 4
# Target: RING finger protein unkempt homolog, zinc fingers 1-6, GST-SBP tag (UNK, Homo sapiens, UniProt Q9C0B0, residues 30-357)
# Chain of UniProt Q9C0B0 (30-357, looked up): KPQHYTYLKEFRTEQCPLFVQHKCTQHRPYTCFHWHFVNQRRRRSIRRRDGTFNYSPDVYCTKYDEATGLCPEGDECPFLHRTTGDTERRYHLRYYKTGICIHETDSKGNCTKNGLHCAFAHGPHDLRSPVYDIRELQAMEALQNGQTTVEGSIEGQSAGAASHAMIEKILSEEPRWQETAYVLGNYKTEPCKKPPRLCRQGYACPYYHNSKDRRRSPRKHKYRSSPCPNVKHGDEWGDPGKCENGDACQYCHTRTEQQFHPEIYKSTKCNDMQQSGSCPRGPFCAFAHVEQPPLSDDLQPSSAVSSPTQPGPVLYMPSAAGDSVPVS
# Method: RNA Bind-n-Seq
# Form: RNA
# Sample: in vitro
# Tested at: not given
# Setting: RNA with constant flanks, human and mouse sites, ends assumed
# Reference: input RNA pool
# Reading: higher = stronger binding
Oligonucleotide,bound/input enrichment
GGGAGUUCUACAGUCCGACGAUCAUUGGGAACAAAUCAGUGGUACAAGUGAAAAACUUUUUUGUAAAUUAUCGACGCCGCUUCAACAUAGAUGAAGUUUUACAAGAAUGGGAGGCAGAACAUGGUAAAGAAGAGACCAAUGGGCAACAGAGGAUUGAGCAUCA,0.466 ratio
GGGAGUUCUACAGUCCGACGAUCAUCUGCCUUCAUGCCUUCUACUAUGCCAUAUGGAAACGAUAUGGUGCCCUCCCUGAGAGAUAUAACUGGCAGCUGCAGGCCCCUGACGUUCUCUUCUACCCACUGAGACCAGAGUUAGUGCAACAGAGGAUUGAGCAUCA,0.441 ratio
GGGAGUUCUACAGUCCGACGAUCAUAUUGGAGAAUUGGGAGAAGUCUCUUUGGUUUGGAAAAAAAAAAAAGGAAUCUUCAGCCUAGAUCACUUUCUUAUCCGGACUGGGAUAUUAAAUAUACGACACAUCCAGGAGUUUAUUGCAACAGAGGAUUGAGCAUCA,0.392 ratio
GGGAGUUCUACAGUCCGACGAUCCUGGGGGCCGGGGCGGUGGCCUACGGCGUCCGCGAAUCCGUGUUCACCGUGGAAGGCGGUCAUAGAGCCAUCUUUUUUAAUCGUAUUGGUGGCGUGCAGCAGGACACGAUCCUGGCCGAACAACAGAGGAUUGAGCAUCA,0.138 ratio
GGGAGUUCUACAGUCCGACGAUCAGUCAGAAUUUAUAGCUUUCACUAUGUCCAAGACUAGGACUGGGUUAUAAAGAUUUUCUUUUGUGAAGGAAAAUAAAAGAAAAUUUGCCACUACUGCAUUUACUUUACUAUUGUAAACUUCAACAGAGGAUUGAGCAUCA,0.393 ratio
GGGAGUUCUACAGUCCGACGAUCUUAAAGAAGCCACUGUGUUUUAGUGUAGUUGGCAAAAAUAUAAAAGCUGUUUCUUAUUUGCCCCUAUUUUUUUGGUGUCUUAAAGUUAUAUAUUAAAUCACAGAGAAGCAAGGGAGAAAGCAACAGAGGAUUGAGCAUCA,0.917 ratio

# Set 5
# Target: Prothrombin, mature alpha-thrombin (F2, Homo sapiens, UniProt P00734)
# Method: aptamer microarray, sandwich
# Form: DNA with 2'F-ANA
# Sample: in vitro
# Tested at: 200 nM
# Setting: whole 15-mer aptamer, many near background
# Together with: Cy3 exosite-II aptamer, 400 nM
# Reading: higher = stronger binding
# Oligonucleotide: GGTTGGTGTGGTTGG
Modification,mean fluorescence intensity [a.u.]
2'F-ANA at 1 5 9 10 12 14,67.6
2'F-ANA at 3 4 5 9 10 11 12 13 14,56.4
2'F-ANA at 1 3 4 5 6 9 10 11 13,53.4
2'F-ANA at 2 3 4 5 6 7 11 14,55.5
2'F-ANA at 6 7 9 10 12 13,199
2'F-ANA at 1 4 5 9 10 12,73.9
2'F-ANA at 1 5 6 7 10 13,56.5
2'F-ANA at 1 3 5 8 9 14,45.6
2'F-ANA at 2 3 6 7 8 11 14,420
2'F-ANA at 2 3 5 6 7 8 14,51.8
2'F-ANA at 3 4 5 8 9 11 13 14,57.3
2'F-ANA at 5 7 8 9 12,220
2'F-ANA at 1 2 4 7 12 13 14,70.9
2'F-ANA at 1 3 6 10 11 13 14 15,56.9
2'F-ANA at 3 4 11 14 15,292
2'F-ANA at 5 6 7 8 9 10 12 13 15,71.5
2'F-ANA at 1 3 4 7 9 12,415
2'F-ANA at 1 4 5 7 9 11 12 13,72.5

# Set 6
# Target: Ras GTPase-activating protein-binding protein 1, full length (G3BP1, Homo sapiens, UniProt Q13283)
# Chain of UniProt Q13283 (whole entry, looked up): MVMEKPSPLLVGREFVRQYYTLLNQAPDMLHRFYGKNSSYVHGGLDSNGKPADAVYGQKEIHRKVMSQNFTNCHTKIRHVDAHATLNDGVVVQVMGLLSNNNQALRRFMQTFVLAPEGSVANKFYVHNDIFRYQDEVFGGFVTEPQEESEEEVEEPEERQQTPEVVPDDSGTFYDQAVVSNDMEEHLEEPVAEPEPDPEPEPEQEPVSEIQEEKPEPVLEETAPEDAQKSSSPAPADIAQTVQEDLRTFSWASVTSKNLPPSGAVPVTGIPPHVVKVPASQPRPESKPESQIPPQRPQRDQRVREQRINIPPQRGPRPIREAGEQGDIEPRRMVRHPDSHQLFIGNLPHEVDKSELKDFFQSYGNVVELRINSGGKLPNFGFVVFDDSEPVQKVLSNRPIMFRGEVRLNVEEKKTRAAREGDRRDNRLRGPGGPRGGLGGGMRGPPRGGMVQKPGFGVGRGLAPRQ
# Method: RNA Bind-n-Seq
# Form: RNA
# Sample: in vitro
# Tested at: 200 nM
# Setting: whole 134-nt RNA, ends assumed
# Together with: 150 mM KCl
# Reference: input library
# Reading: higher = stronger binding
Oligonucleotide,log2 enrichment
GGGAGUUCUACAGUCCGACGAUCUUACACCAAUGAGAAGCUGCAGCAGCUCUUCAACCACACCAUGUUCAUCCUGGAGCAGGAGGAGUACCAGCGCGAGGGCAUCGAGUGGAAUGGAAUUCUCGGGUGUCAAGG,-0.557
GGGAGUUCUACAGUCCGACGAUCGUCCUGUGCUACACAUCGUAUGUACCGAAUCGGGGAGGGGUUUUUGGGGUUUUUGGGGAAAGUAUUAUGUUACGCCGUUCGGAUCUGCACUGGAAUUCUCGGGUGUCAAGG,0.321
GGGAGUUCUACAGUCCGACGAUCUCCUCAAGUCCUGUGCUACACAUCGUAUGUACCGAAUCGGUGGUGGGGUGGAAAGUAUUAUGUUACGCCGUUCGGAUCUGCACUUCCAGCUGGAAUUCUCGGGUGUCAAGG,-0.247
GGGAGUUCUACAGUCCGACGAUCUCAAGUCCUGUGCUACACAUCGUAUGUACCGAAUCGGGCCGGGGCCGGGCCGGGAAAGUAUUAUGUUACGCCGUUCGGAUCUGCACUUCCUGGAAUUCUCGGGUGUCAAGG,0.169
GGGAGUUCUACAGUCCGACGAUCAAAAUAAGCCUAAGAAAGAAUUAAUUAAAGUUCUGAUUCAGAGGGGAUAUGAUUCGGAUCCUGUGAAGGCCUGGAAAGAAGCCCAGCAAAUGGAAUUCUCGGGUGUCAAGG,-0.574
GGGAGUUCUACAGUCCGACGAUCAGGAAAAUGUUUAUAGGAGGCCUUAGCUGGGACACUACAAAGAAAGAUCUGAAGGACUACUUUUCCAAAUUUGGUGAAGUUGUAGACUGCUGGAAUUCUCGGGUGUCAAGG,-0.682
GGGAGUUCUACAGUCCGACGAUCCUGUGCUACACAUCGUAUGUACCGAAUCAAACCCCCCCAAAUUUUUUUAAACCCCCCCAAAAAAGUAUUAUGUUACGCCGUUCGGAUCUGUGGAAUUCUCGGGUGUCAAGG,1.03
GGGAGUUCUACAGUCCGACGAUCCAAGUCCUGUGCUACACAUCGUAUGUACCGAAUCGGGAAAGGAAAGGGGAAAGGGAAAGUAUUAUGUUACGCCGUUCGGAUCUGCACUUCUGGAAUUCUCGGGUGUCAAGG,0.179
